Assay results pooled from the literature.
Compare with care: the assays were run in different laboratories. Positions of bridges follow the written chain, without caps; N, C: chain ends. Non-standard residues stand in square brackets, D forms with d. No end group written: not given here. *: point of attachment.
hfq full length assumed: hfq full length assumed (Pseudomonas fluorescens, UniProt C3KDW3)
Sequence of UniProt C3KDW3 (whole entry, looked up): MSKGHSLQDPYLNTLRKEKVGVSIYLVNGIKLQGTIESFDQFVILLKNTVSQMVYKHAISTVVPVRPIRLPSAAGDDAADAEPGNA
Sequence of UniProt Q07820 (172-320, unmodified, looked up): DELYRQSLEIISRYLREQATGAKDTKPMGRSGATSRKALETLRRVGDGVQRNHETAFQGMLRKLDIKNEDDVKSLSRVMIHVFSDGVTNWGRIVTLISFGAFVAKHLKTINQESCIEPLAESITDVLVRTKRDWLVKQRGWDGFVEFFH
Sequence of UniProt Q9I0M3 (whole entry, looked up): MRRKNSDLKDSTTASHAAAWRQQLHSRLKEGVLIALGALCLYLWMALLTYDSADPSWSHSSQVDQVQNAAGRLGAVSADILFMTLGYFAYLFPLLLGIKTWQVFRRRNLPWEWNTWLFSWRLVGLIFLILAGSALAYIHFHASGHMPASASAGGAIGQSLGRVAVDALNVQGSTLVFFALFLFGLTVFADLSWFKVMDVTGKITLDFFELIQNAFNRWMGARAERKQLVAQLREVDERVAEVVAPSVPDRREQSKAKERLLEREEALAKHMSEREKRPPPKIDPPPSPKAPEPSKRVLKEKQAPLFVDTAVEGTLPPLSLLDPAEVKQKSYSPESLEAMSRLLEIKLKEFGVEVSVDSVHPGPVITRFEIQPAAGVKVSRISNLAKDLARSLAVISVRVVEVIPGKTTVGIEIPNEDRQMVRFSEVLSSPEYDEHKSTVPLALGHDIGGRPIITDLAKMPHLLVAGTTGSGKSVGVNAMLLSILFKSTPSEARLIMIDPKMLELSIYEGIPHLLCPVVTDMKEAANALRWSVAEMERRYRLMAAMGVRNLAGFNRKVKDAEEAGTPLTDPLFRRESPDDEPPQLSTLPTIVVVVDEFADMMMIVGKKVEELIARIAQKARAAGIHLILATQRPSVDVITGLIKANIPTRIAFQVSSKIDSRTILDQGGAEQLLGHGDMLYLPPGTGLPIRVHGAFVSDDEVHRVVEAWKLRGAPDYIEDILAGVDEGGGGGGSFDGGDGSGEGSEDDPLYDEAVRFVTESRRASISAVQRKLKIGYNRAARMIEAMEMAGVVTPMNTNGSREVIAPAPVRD
Sequence of UniProt P0A6R3 (whole entry, looked up): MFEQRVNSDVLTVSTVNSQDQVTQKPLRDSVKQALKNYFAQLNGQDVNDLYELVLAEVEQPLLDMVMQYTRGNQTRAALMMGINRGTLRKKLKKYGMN

Molecule	tested on	test	test system	conditions	scale	quantity	value
GGGGCGCGGGTGCCAGGGCGTGCCCTTGGGCTCCCCGGGCGCGTACTCCG (dsDNA)	Int 155-605 (Streptomyces phage phiC31, UniProt Q9T221)	EMSA	double-stranded DNA, one strand shown			binding	binds
{FITC-βAla}-KALETLR[S5]VGD[S5]VQRNHETAF (designed peptide (Homo sapiens); staple 8-12; N-terminal FITC-βAla; i,i+4 hydrocarbon staple; FITC = O=C1OC2(c3ccc(O)cc3Oc3cc(O)ccc32)c2ccc(NC(=S)*)cc21; βAla = NCCC(=O)O; S5 = C=CCCC[C@](C)(N)C(=O)O)	MCL1 residues 172-320 (Homo sapiens, UniProt Q07820)	competition with ligand, FP	peptide	read off a plot		Ki	3100 nM
CAGATCGATTATGCCCCAATAACCACACTCAACCCATGATGTTTGTTAAGATAGTGGCGAATTGATGCAAAGGAGGTG (dsDNA)	fis full length assumed (Escherichia coli, UniProt P0A6R3)	EMSA	double-stranded DNA, one strand shown			binding	binds
TGCCGCTGGGTAGGCCAACCGGACGAGGTCTTCAGGCAT (dsDNA)	rccR (Pseudomonas aeruginosa, UniProt A0A071KWR3)	EMSA	double-stranded DNA, one strand shown	together with: KDPG 8 µM		binding	binds
TTCTTTGTGGTATAATTGCAAGAGGT (dsDNA)	Aspartate aminotransferase (Streptococcus pneumoniae, UniProt Q8DNN5)	EMSA	double-stranded DNA, one strand shown	one complex		binding	binds
UCUCAGGAUAAGAAUAAUUAAGGAC (ssRNA)	hfq full length assumed	EMSA	RNA			binding	binds
ACCAGGGCAGGGCGAC (dsDNA)	ftsK 743-811 (Pseudomonas aeruginosa, UniProt Q9I0M3)	NMR	double-stranded DNA, one strand shown	pH 7.0		binding	binds
AGATATCTAATTGTTAGTAAGCTAATTATTG (dsDNA)	HTH marR-type domain-containing protein full length assumed (Staphylococcus aureus, UniProt A0A0H3JPT9)	fluorescence polarization	double-stranded DNA, one strand shown			Kd	187 nM
UNC13D D127N/D133N/D941N/D947N	PTK2	co-IP	HEK293	no EGTA, read off a plot	higher = more binding	signal	0.43%
CGCUACACCAACAACAAACGGGCUG (ssRNA)	hfq full length assumed	EMSA	RNA			binding	binds

For quick reference, copied from above:
Molecule	tested on	test	test system	conditions	scale	quantity	value
ACCAGGGCAGGGCGAC (dsDNA)	ftsK 743-811 (Pseudomonas aeruginosa, UniProt Q9I0M3)	NMR	double-stranded DNA, one strand shown	pH 7.0		binding	binds
